Experimental data collected from several papers.
Lines come from different studies, so protocols differ.
MTNR1A: Melatonin receptor type 1A (MTNR1A, Homo sapiens, UniProt P48039)
UniProt P48039, sequence (whole entry, looked up): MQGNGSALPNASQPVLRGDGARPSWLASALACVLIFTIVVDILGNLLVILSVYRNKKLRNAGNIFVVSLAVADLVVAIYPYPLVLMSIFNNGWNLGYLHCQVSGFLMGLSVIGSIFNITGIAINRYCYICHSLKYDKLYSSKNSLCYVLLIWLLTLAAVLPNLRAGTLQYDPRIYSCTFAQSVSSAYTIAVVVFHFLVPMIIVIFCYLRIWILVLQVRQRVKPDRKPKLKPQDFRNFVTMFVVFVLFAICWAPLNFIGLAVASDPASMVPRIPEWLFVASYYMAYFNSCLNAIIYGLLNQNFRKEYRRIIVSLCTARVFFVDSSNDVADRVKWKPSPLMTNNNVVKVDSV
MTNR1B: Melatonin receptor type 1B (MTNR1B, Homo sapiens, UniProt P49286)
UniProt P49286, sequence (whole entry, looked up): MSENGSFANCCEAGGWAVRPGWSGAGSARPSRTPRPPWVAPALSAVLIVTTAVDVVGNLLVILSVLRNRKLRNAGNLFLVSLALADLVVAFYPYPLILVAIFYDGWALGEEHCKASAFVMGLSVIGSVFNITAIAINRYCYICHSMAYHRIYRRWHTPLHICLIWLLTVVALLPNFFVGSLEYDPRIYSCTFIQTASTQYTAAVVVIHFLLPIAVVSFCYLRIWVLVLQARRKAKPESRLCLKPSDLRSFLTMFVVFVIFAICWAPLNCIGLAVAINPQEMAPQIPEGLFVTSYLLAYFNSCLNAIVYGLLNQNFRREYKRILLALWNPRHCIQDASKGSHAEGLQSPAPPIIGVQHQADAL
UniProt O14757, sequence (whole entry, looked up): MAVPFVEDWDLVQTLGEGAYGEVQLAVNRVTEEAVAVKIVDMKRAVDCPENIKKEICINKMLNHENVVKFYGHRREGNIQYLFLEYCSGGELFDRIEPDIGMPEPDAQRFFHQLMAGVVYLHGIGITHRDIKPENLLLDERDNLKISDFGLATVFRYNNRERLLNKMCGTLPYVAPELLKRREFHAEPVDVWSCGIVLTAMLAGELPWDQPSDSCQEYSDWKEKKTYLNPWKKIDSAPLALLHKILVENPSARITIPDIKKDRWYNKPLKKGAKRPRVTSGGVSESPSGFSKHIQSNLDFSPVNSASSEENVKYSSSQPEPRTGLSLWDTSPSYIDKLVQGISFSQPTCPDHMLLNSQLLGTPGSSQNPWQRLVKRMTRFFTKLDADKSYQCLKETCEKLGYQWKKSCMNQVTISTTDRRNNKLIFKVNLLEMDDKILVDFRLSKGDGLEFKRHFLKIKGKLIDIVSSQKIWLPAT
UniProt P21860, sequence (whole entry, looked up): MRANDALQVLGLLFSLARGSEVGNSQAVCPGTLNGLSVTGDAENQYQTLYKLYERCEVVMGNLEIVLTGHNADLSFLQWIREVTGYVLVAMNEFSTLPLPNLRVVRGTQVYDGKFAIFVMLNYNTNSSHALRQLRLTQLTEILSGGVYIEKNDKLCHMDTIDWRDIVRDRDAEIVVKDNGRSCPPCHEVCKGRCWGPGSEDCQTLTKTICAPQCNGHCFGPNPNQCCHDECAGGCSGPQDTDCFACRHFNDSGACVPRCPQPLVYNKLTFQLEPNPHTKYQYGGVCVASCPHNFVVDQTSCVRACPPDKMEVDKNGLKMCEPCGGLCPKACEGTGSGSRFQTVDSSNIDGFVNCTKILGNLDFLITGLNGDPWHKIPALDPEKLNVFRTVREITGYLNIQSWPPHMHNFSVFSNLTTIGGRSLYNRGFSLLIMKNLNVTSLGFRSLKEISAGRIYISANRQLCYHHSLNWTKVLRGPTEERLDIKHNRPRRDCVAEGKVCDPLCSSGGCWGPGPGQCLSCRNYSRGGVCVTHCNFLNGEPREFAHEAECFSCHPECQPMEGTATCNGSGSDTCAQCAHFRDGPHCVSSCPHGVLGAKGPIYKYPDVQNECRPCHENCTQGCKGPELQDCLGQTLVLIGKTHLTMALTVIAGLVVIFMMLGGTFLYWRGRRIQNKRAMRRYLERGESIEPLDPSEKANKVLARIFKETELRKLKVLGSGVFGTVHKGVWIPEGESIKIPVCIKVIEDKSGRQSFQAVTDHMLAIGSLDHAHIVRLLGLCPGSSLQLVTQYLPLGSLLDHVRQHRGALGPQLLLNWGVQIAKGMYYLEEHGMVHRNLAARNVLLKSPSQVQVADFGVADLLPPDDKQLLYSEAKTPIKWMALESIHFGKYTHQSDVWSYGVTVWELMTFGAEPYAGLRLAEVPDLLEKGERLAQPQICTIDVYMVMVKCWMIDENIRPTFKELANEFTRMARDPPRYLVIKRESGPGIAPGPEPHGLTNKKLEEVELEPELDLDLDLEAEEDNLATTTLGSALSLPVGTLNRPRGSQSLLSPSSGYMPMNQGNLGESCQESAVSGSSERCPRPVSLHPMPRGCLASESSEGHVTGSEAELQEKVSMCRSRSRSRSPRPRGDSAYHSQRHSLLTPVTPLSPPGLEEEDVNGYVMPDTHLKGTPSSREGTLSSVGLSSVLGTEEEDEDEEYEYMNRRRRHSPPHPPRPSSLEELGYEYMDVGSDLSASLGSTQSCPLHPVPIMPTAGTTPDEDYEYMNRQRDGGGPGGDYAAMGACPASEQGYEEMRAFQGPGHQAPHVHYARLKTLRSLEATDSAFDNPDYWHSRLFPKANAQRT
UniProt P48736, sequence (whole entry, looked up): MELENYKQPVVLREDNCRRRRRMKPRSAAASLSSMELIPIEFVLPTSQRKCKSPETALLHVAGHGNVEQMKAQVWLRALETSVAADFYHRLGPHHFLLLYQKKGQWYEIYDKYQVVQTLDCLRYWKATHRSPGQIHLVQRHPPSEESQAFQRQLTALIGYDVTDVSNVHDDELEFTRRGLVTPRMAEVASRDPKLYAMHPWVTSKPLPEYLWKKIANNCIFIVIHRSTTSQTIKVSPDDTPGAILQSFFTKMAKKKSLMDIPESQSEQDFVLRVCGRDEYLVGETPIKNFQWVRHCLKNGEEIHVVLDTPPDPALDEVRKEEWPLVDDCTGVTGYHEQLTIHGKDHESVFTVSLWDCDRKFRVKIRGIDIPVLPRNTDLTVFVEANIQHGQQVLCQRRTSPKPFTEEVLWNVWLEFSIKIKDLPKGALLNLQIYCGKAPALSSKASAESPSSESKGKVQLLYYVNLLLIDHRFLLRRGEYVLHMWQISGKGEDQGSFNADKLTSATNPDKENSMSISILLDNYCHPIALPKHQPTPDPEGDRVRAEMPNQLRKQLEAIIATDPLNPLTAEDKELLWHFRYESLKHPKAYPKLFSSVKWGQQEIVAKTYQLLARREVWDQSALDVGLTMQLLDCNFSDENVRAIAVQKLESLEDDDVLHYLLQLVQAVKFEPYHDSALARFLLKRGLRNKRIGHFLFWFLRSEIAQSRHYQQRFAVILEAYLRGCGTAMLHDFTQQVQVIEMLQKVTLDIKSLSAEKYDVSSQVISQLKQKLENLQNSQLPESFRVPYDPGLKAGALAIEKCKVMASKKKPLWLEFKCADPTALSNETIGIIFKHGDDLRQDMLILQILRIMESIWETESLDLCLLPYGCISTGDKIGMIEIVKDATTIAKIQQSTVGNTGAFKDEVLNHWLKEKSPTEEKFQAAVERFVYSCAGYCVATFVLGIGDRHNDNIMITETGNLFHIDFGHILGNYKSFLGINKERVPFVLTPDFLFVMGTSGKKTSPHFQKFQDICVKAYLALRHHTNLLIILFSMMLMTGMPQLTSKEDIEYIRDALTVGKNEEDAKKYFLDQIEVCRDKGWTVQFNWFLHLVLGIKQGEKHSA
UniProt Q6WQJ1, sequence (whole entry, looked up): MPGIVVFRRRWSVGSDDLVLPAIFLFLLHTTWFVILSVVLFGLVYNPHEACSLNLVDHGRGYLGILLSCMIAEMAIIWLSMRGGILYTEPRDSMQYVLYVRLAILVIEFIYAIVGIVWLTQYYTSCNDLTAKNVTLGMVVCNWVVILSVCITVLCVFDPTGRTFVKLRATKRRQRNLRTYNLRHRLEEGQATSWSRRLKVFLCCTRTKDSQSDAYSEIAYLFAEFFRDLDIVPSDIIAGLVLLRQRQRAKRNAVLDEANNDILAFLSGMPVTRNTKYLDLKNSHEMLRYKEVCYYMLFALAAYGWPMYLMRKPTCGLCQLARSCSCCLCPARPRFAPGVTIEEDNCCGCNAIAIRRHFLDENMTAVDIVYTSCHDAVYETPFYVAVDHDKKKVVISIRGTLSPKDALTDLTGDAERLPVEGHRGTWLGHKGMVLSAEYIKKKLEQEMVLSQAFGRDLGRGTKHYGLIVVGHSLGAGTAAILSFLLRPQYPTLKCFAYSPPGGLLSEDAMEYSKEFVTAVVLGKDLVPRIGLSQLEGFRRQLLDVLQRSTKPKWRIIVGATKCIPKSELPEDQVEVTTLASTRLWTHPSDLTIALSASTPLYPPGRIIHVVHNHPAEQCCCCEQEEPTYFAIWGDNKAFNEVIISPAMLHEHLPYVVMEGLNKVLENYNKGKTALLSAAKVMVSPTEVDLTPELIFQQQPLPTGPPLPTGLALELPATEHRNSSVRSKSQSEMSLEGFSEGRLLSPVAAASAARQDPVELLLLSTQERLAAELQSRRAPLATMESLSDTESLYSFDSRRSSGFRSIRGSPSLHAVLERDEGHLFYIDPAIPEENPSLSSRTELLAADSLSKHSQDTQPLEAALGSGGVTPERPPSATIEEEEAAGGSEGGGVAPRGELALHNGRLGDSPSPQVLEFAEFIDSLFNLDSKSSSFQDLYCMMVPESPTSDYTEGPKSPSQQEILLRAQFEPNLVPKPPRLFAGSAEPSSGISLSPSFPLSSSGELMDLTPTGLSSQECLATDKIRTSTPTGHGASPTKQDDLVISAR
UniProt P27361, sequence (whole entry, looked up): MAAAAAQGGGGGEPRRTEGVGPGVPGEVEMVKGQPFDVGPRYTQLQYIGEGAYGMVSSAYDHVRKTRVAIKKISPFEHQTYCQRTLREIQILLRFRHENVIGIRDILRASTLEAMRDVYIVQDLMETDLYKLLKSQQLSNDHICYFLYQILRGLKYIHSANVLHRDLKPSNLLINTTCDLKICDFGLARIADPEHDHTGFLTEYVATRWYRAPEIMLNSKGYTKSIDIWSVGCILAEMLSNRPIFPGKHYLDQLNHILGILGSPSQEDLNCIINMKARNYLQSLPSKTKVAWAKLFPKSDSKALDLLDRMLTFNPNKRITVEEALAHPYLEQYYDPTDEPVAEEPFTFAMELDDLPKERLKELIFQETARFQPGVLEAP

C=CC(=O)N1CCC(COCC(=O)N2CCN(c3nc(-c4cnc(N)nc4C(F)F)nc(N4CCOC[C@@H]4C)n3)CC2)CC1  remaining binding (FLT1 (Homo sapiens, UniProt P17948); binding, competition with immobilised ligand; 1 µM): 96%
Cc1cc([C@@H](C)Nc2ccccc2C(=O)O)c2nc(N3CCC(F)(F)CC3)c(C#N)c(=O)n2c1  remaining binding (CHEK1 (Homo sapiens, UniProt O14757); binding, competition with immobilised ligand; 1 µM): 93%
COCC(CNC(C)=O)c1cccc2ccc(OC)cc12 (stereo not drawn)  Emax (MTNR1A; β-arrestin recruitment, agonist; CHO-K1; 90 min): 81%
COc1cc(-c2cncc3c2CN(C)Cc2cc(N4CCNCC4)ccc2-3)cc(OC)c1OC  remaining activity (Cyclin-dependent kinase 14, with cyclin Y (CDK14, Homo sapiens, UniProt O94921); enzyme activity, inhibitor; 1 µM): 102%
CNc1ncc2c(/C=C/C(=O)N3CCC(OC)CC3)nn(Cc3cccc(C(F)(F)F)c3)c2n1  remaining activity (LTK (Homo sapiens, UniProt P29376); enzyme activity, inhibitor, radiometric; 1 µM): 97%
COc1cc(CNC(=O)c2ccncc2Cl)cc(Br)c1OC  inhibition (Replicase polyprotein 1ab, papain-like protease (rep, Porcine epidemic diarrhea virus, UniProt P0C6Y4); enzyme activity, inhibitor, FRET; 10 µM): 3.07%
CC[C@H](C)[C@H](NC(=O)[C@H](CCC(N)=O)NC(=O)[C@@H](NC(=O)[C@H](CCSC)NC(=O)[C@H](CCCCN)NC(=O)[C@H](CO)NC(=O)[C@@H](NC(=O)[C@H](CCSC)NC(=O)[C@H](CC(C)C)NC(=O)[C@H](CC(N)=O)NC(=O)[C@@H](NC(=O)[C@@H](NC(=O)[C@H](CO)NC(=O)[C@H](CC(C)C)NC(=O)[C@H](C)NC(=O)[C@H](CCCNC(=N)N)NC(=O)[C@H](CCC(=O)O)NC(=O)[C@H](Cc1ccc(O)cc1)NC(=O)[C@H](Cc1ccccc1)NC(=O)[C@H](C)NC(=O)[C@H](CC(N)=O)NC(=O)[C@@H](N)CCCCN)[C@@H](C)CC)[C@@H](C)CC)[C@@H](C)O)C(C)C)C(=O)N[C@@H](CC(N)=O)C(=O)N[C@H](C(=O)O)C(C)C  inhibition (MAPK3 (Homo sapiens, UniProt P27361); enzyme activity, inhibitor, radiometric; 10 µM): 0%
CCCCC(=O)Nc1ccc(-c2ccc3ncn(CCC)c(=O)c3c2)cn1  remaining binding (Ribosomal protein S6 kinase alpha-2, N-terminal kinase domain (RPS6KA2, Homo sapiens, UniProt Q15349); binding, competition with immobilised ligand; 0.5 µM): 100%
CN1CC(Oc2cnc(C#N)cc2-c2ccn3nc(NC(=O)C4CC4)cc3c2)C1  inhibition (PIK3CG (Homo sapiens, UniProt P48736); enzyme activity, inhibitor; 1 µM): 1%
O=C1O[C@H]([C@@H](O)CO)C(O)=C1O  inhibition (DPPH scavenging, absorbance; 30 µg/mL): 51.4%
Nc1ncnc2occ(-c3ccc(NC(=O)Nc4cc(C(F)(F)F)ccc4F)cc3)c12  remaining signal (PIK3CA (Homo sapiens, UniProt P42336, E545A); cell-free assay, inhibitor; 20 µM): 56%
COc1cc2c(CCNC(C)=O)c(I)[nH]c2cc1[N+](=O)[O-]  Emax (MTNR1B; β-arrestin recruitment, agonist; MT2; 90 min): 96%
C#CCO[C@@H]1CC[C@H](Cc2ccccc2)N(C(=O)n2ncc(C(O)(c3ccc(F)cc3)c3ccc(F)cc3)n2)C1  kinact (Diacylglycerol lipase-alpha (Mus musculus, UniProt Q6WQJ1); enzyme activity, inhibitor): 0.000967 s⁻¹
CN(C)c1nccc(-c2cnn3ncccc23)n1  remaining binding (SIK1 (Homo sapiens, UniProt P57059); binding; 1 µM): 100%
NC/C(=C\F)COc1cccc(Cn2c(=S)[nH]c(=O)c3[nH]cnc32)c1  inhibition (AOC1 (Homo sapiens, UniProt P19801); enzyme activity, inhibitor; 4.1 nM): 1.86%
CCc1oc2cc(S(=O)(=O)Nc3ccc(S(=O)(=O)Nc4nccs4)cc3)ccc2c1C(=O)c1cc(Br)c(O)c(Br)c1  ΔTm (PTPN1 (Homo sapiens, UniProt P18031); thermal stability, DSF): > 5 °C
C1=C/COCc2cc(ccc2OCCN2CCCC2)Nc2nccc(n2)-c2cccc(c2)COC/1  remaining binding (ERBB3 (Homo sapiens, UniProt P21860); binding; 0.1 µM): 22%
O=C(NCCc1cccc2ccccc12)C1CCC1  Emax (MTNR1B; GTPγS binding, agonist, radiometric; cell membranes): 42%
FC(F)(F)Oc1cccc(-c2cnc3ccc(-c4ccncc4)nn23)c1  activity vs control (DYRK3 (Homo sapiens, UniProt O43781); enzyme activity, inhibitor, radiometric; 5 µM): 34%
CN(O)N=Nc1ccc(S(=O)(=O)Nc2nccs2)cc1  inhibition (DPPH scavenging, absorbance; 60 µg/mL): 13%
COc1cc(I)c2[nH]cc(CCNC(C)=O)c2c1  Emax (MTNR1A; cAMP, agonist, TR-FRET; CHO-K1; 20 min): 102%
